Measured values from different studies.
± gives the spread as reported.
VIM-2: Metallo-beta-lactamase VIM-2 (VIM-2, Escherichia coli, UniProt Q5U7L7)
Chain of UniProt P03303 (whole entry, looked up): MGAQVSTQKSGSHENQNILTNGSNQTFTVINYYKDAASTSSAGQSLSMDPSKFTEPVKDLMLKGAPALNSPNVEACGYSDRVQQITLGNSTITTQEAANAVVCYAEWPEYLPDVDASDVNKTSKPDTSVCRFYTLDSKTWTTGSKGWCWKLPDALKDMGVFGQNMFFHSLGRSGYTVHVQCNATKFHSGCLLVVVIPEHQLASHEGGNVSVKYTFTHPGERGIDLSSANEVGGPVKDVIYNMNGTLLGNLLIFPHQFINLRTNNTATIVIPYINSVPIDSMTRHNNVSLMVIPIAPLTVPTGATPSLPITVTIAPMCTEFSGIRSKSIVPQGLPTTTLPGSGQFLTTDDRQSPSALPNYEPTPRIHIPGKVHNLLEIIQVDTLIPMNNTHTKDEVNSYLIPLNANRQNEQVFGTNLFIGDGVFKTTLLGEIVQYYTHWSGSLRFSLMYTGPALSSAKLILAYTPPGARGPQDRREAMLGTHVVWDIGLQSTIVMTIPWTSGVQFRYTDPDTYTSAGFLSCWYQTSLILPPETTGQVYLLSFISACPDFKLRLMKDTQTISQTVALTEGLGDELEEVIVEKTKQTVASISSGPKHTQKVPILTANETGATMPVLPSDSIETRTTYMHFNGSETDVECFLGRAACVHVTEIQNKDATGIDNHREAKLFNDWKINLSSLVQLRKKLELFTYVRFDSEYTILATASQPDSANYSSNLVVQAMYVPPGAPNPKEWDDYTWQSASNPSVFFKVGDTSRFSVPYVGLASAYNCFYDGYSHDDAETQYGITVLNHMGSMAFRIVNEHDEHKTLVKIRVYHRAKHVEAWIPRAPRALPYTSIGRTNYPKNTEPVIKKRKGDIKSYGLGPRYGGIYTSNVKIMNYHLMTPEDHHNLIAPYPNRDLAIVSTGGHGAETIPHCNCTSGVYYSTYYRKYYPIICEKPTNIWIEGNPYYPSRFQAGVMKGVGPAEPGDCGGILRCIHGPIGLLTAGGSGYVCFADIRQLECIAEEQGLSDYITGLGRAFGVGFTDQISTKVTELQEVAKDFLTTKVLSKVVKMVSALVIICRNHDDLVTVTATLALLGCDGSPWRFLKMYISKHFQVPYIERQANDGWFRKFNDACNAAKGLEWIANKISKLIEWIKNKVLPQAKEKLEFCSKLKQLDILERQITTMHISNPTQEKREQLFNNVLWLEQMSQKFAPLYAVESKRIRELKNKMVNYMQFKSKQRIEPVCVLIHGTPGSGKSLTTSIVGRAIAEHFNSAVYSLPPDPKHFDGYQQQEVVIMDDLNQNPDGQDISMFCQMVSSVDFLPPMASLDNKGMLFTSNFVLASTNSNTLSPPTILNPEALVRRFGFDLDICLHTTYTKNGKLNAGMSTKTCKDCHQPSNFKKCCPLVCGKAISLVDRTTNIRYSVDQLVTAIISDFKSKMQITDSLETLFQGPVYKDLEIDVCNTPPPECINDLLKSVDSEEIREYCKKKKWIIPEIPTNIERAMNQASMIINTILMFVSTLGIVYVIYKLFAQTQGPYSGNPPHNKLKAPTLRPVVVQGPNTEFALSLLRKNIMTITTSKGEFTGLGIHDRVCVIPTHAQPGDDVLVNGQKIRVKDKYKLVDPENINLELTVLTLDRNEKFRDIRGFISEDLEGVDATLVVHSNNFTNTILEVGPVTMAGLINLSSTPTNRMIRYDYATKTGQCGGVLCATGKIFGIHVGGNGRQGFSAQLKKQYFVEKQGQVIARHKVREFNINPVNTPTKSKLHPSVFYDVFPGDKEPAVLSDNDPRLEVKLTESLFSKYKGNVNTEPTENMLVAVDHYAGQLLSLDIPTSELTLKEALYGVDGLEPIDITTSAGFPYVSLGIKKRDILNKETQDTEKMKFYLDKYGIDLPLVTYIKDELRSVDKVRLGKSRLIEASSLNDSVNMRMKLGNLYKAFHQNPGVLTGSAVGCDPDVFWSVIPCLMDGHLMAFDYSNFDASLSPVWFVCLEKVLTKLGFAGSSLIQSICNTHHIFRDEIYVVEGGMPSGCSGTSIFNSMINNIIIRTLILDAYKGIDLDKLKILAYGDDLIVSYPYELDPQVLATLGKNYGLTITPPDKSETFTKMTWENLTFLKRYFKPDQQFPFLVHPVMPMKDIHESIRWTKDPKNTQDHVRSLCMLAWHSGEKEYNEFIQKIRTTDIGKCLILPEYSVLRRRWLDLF
Chain of UniProt P40763 (whole entry, looked up): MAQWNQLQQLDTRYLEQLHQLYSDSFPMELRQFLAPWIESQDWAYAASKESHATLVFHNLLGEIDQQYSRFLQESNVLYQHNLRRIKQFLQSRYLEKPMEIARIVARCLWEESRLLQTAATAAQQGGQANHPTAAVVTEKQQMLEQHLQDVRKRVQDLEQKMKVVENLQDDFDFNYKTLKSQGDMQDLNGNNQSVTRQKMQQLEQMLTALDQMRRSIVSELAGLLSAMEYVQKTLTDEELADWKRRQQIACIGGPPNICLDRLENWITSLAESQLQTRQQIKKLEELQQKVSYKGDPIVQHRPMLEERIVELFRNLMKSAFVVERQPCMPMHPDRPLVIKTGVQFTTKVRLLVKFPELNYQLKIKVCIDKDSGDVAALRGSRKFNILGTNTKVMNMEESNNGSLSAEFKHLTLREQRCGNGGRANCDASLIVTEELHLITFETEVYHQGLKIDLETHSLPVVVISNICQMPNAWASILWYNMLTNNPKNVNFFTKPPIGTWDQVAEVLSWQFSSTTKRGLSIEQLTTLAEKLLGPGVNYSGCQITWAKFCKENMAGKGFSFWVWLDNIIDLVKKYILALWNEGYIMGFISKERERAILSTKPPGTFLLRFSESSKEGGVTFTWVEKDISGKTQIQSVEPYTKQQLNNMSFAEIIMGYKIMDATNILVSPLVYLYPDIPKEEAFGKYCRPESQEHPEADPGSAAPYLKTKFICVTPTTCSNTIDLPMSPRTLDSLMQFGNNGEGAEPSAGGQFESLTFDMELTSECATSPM
Chain of UniProt O43148 (whole entry, looked up): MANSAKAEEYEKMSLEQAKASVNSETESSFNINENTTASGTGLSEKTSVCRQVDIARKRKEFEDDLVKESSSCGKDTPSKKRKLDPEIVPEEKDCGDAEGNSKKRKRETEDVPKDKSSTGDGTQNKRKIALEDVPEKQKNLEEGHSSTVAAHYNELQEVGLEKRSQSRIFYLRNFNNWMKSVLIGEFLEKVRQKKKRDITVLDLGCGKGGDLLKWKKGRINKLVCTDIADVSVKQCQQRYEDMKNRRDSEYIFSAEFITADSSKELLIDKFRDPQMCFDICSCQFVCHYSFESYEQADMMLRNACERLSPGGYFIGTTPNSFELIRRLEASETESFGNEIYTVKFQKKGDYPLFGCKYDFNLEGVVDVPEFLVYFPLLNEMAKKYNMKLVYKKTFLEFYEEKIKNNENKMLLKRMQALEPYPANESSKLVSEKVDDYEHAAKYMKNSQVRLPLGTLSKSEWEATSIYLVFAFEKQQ
Chain of UniProt P15066 (whole entry, unmodified, looked up): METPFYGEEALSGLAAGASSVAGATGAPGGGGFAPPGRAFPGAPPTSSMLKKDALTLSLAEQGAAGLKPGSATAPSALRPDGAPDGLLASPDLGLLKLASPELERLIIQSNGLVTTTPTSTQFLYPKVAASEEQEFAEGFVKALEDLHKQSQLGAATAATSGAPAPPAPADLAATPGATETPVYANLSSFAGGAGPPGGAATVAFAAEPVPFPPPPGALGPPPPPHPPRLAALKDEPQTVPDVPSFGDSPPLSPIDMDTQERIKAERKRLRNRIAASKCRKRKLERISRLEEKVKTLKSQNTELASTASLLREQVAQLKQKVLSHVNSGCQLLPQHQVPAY
Chain of UniProt Q15761 (whole entry, looked up): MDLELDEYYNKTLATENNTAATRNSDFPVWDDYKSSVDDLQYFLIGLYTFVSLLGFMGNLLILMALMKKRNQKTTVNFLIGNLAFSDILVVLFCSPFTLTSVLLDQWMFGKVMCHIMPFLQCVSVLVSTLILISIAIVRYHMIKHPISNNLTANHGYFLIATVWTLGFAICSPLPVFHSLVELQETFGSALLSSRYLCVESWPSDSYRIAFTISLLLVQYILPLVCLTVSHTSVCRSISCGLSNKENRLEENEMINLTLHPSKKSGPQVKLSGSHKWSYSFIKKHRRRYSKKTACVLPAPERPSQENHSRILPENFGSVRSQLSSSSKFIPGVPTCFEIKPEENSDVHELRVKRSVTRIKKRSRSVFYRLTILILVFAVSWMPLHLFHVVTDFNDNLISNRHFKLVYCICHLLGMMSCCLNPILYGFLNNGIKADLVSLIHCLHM
Chain of UniProt P97612 (whole entry, looked up): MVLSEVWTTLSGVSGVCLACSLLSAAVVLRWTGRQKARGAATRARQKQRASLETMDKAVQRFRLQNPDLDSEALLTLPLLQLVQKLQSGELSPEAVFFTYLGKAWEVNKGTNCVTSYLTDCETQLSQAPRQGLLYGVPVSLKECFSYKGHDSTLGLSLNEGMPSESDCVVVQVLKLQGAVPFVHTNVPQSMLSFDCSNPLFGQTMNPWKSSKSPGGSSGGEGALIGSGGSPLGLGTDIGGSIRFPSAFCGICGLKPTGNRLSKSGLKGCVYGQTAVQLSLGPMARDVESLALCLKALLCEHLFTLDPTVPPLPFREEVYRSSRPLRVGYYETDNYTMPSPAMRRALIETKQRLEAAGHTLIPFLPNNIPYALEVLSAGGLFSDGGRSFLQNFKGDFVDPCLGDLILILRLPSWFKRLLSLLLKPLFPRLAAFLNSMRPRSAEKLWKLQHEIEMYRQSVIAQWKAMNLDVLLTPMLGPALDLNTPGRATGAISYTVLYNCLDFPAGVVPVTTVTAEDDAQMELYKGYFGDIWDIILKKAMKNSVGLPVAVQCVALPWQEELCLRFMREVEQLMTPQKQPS
Chain of UniProt Q5VST6 (whole entry, looked up): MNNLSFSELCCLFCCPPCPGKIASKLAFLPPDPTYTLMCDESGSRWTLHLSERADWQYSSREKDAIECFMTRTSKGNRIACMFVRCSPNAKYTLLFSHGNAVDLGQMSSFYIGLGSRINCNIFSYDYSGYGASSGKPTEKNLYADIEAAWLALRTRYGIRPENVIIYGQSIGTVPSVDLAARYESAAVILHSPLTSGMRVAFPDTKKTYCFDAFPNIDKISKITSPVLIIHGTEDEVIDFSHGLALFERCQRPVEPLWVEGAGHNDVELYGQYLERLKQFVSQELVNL

SMILES = O=C1NC(=O)C(=Cc2ccc(-c3ccc(Br)cc3)o2)S1; target = BRAF (Homo sapiens, UniProt P15056, V600E); assay = enzyme activity, inhibitor, ELISA; IC50 = 2.26 µM
SMILES = CC(C)C[C@H](NC(=O)[C@H](CCCNC(=N)N)NC(=O)[C@@H](N)CS)C(=O)N[C@@H](CC(N)=O)C(=O)O; target = PPO3 (Agaricus bisporus, UniProt C7FF04); assay = enzyme activity, inhibitor; IC50 = 234 µM
SMILES = O=C(NCCN1CCC2(CC1)C(=O)NCN2Cc1cccnc1)c1cc2ccccc2[nH]1; target = Phospholipase D2 (Homo sapiens, UniProt O14939); assay = enzyme activity, inhibitor; IC50 = 0.052 µM
SMILES = Nc1ncnc2c1ncn2[C@@H]1O[C@H](CSCCNC(=O)NCCc2ccccc2)[C@@H](O)[C@H]1O; target = EHMT2 (Homo sapiens, UniProt Q96KQ7); assay = enzyme activity, inhibitor, radiometric; IC50 = > 50 µM
SMILES = CCOc1ccccc1/C=C\c1nc(O)c([N+](=O)[O-])c(=O)[nH]1; target = ACP3 (Homo sapiens, UniProt P15309); assay = enzyme activity, inhibitor; IC50 = 13.8 µM
SMILES = C/C(=C\C(=O)N[C@@H](CC(C)C)C(=O)N1C[C@@H](O)C[C@H]1C(=O)N[C@H](C)CCC(N)=O)c1ccc(OP(=O)(O)O)cc1; target = STAT3 (Homo sapiens, UniProt P40763); assay = phosphopeptide binding, inhibitor, fluorescence polarization; IC50 = 0.22 ± 0.027 µM
SMILES = O=C(NCCN1CCC2(CC1)C(=O)NCN2C(=O)C1CC1)c1ccc2ccccc2c1; target = Phospholipase D1 (Homo sapiens, UniProt Q13393); assay = enzyme activity, inhibitor; IC50 = 3.1 µM
SMILES = Fc1cccc(COc2ccc(/C=N/NC(=S)Nc3ccccc3)cc2)c1; target = MAOB (Homo sapiens, UniProt P27338); assay = enzyme activity, inhibitor, absorbance; IC50 = 12.2 µM
SMILES = CCCCCCCCCCCCCCCc1ccc(C(Br)P(=O)(O)O)cc1 (racemic); target = Autotaxin (ENPP2, Homo sapiens, UniProt Q13822); assay = enzyme activity, inhibitor; setting = together with: FS-3 1 µM; IC50 = 10.1 µM
SMILES = CC(C)C[C@@H]1NC(=O)[C@H](CCCNC(=N)N)NC(=O)[C@H](CCCCN)NC(=O)[C@H](CC(=O)O)NC(=O)[C@H](CCCCN)NC(=O)[C@@H](CO)NC1=O; target = Disintegrin and metalloproteinase domain-containing protein 9 (Homo sapiens, UniProt Q13443); assay = enzyme activity, inhibitor, fluorescence; IC50 = > 10 µM
SMILES = O=C(Nc1ccccc1)c1ccccc1O; target = HDAC11 (Homo sapiens, UniProt Q96DB2); assay = enzyme activity, inhibitor, fluorescence; IC50 = > 10 µM
SMILES = NC[C@@H]1[C@@H](O)[C@@H](O)[C@H]2[C@@H](O)CCN21; target = Alpha-mannosidase 2 (Homo sapiens, UniProt Q16706); assay = enzyme activity, inhibitor, 4-MU fluorogenic; setting = together with: Man-α-4MU 5 mM; IC50 = > 200 µM
SMILES = C[C@H]1CN(Cc2ccc(C(F)(F)F)cc2N2C3CCC2CN(CC(=O)O)C3)CCN1C(=O)n1ccc(S(=O)(=O)N(C)C)n1; target = ABHD17B (Homo sapiens, UniProt Q5VST6); assay = cell-free assay, inhibitor; setting = lysate; IC50 = 0.21 µM
SMILES = CC[C@H](C)[C@@H]1NC(=O)[C@H](Cc2ccccc2)NC(=O)[C@H](CC(N)=O)NC(=O)[C@@H](NC(=O)[C@@H](NC(=O)[C@H](CO)NC(=O)[C@@H](N)Cc2ccc(O)cc2)[C@@H](C)O)CSC(=O)[C@H](CCSC)NC1=O; target = agrC (Staphylococcus aureus, UniProt O07911); IC50 = 0.0724 µM
SMILES = COc1ccc(C(=O)CCl)c2c1C(=O)CO2; target = Fosb/Jund, ΔFosB isoform (Mus musculus, UniProt P13346+P15066); assay = ΔFOSB/JUND DNA binding, fluorescence polarization; setting = 15 min, together with: TMR-cdk5 oligonucleotide; IC50 = 22.3 ± 1.9 µM
SMILES = CCCNC(=O)[C@H](CC(C)C)NC(=O)[C@H](Cc1c[nH]cn1)NC(=O)CNC(=O)[C@@H](NC(=O)[C@H](C)NC(=O)[C@H](Cc1c[nH]c2ccccc12)NC(=O)[C@H](CCC(N)=O)NC(=O)[C@@H](Cc1ccccc1)NC(=O)CCCCCNC(=O)CN1CCN(CC(=O)O)CCN(CC(=O)O)CCN(CC(=O)O)CC1)C(C)C; target = GRPR (Homo sapiens, UniProt P30550); assay = binding; IC50 = 0.00136 ± 9e-05 µM
SMILES = CSCC[C@H](NC(=O)CNC(=O)[C@H](CCCCN)NC(=O)[C@H](CC(C)C)NC(=O)[C@@H]1CCCN1C(=O)[C@H](CO)NC(=O)[C@H](Cc1c[nH]cn1)NC(=O)[C@H](Cc1c[nH]c2ccccc12)NC(=O)[C@H](CCCNC(=N)N)NC(=O)[C@H](CC(C)C)NC(=O)[C@H](CCCNC(=N)N)NC(=O)[C@H](Cc1c[nH]c2ccccc12)NC(=O)[C@H](CS)NC(=O)CCCCCNC(=O)CN1CCN(CC(=O)O)CCN(CC(=O)O)CCN(CC(=O)O)CC1)C(=O)O [copper-64 labelled]; target = PROM1 (Homo sapiens, UniProt O43490); assay = binding, saturation binding; test system = Huh-7; IC50 = 0.045 µM
SMILES = OC(COCc1ccccc1Cl)CN1CC=C(c2c[nH]c3ccccc23)CC1 (racemic); target = SLC6A3 (Homo sapiens, UniProt Q01959); assay = transporter uptake, inhibitor, radiometric; IC50 = 3.44 µM
SMILES = NC(=O)CN(CC(=O)O)CC(=O)O; target = VIM-2; assay = enzyme activity, inhibitor, fluorescence; IC50 = ~25 µM
SMILES = CCn1nnc(-c2ccccc2NC(=O)[C@H](C)CS)n1; target = VIM-2; assay = enzyme activity, inhibitor, fluorescence; setting = with preincubation; IC50 = 0.0603 µM
SMILES = CC(=O)N[C@@H](CC(C)C)C(=O)N[C@@H](CCC(=O)O)C(=O)N[C@@H](CO)C(=O)N[C@@H](CC(=O)O)C(=O)CCl; target = Caspase-4 (Casp4, Mus musculus, UniProt P70343); assay = enzyme activity, inhibitor, fluorescence; IC50 = 70.4 µM
SMILES = NCCNc1nnnc2c1sc1nc(N3CCOCC3)c3c(c12)CCCC3; target = Beta-glucuronidase (uidA, Escherichia coli, UniProt P05804); assay = enzyme activity, inhibitor; IC50 = 2.6 µM
SMILES = CC[C@H](C)[C@H](NC(=O)[C@@H](N)Cc1ccc(O)cc1)C(=O)N[C@@H](Cc1ccccc1)C(=O)N[C@@H](CC(N)=O)C(=O)N[C@@H](CC(C)C)C(=O)O; target = OPRK1 (Homo sapiens, UniProt P41145); assay = [3H]EKC binding displacement, whole-cell radioligand binding; test system = PC-3; setting = together with: DADLE; IC50 = > 1 µM
SMILES = CC[C@H](C)[C@@H]1NC(=O)[C@H](Cc2ccccc2)NC(=O)[C@H](CC(=O)O)NC(=O)[C@@H](NC(C)=O)CSC(=O)[C@H](CCSC)NC1=O; target = Accessory gene regulator protein C (Staphylococcus aureus, UniProt Q309Z2); IC50 = > 1 µM
SMILES = OC[C@H]1O[C@@H](Oc2cc3c(O)cc(O)cc3[o+]c2-c2ccc(O)c(O)c2)[C@H](O)[C@@H](O)[C@@H]1O; target = mRNA cap guanine-N(7) methyltransferase, with RAM (RNMT, Homo sapiens, UniProt O43148); assay = N7-methyltransferase activity, inhibitor, Py-FLINT; setting = RNMT-RAM complex, together with: SAM 20 µM; IC50 = 5.25 ± 0.58 µM
SMILES = O=C(c1cccc(-n2cccc2)c1)N1CCCN(S(=O)(=O)c2ccc(F)cc2)CC1; target = Genome polyprotein, 3C protease (rhinovirus B14, UniProt P03303); assay = 3C protease activity, SAMDI-MS; test system = human rhinovirus; IC50 = 1.67 µM
SMILES = O=C(O)Cc1c[nH]cn1; target = SLC6A6 (Homo sapiens, UniProt P31641); assay = transporter uptake, inhibitor, radiometric; IC50 = 180 µM
SMILES = O=C(/C=C/c1ccc(Cl)cc1)c1ccc(N2CCNCC2)cc1; target = Beta-secretase 1 (BACE1, Homo sapiens, UniProt P56817); assay = enzyme activity, inhibitor, fluorescence; setting = with preincubation; IC50 = 9.76 µM
SMILES = Cc1cc(S(=O)(=O)Nc2ncccn2)c(F)cc1N(C)C1CCN([C@H](C)c2ccccc2)CC1; target = SCN3A (Homo sapiens, UniProt Q9NY46); assay = sodium current, inhibitor, automated patch clamp; setting = inactivated state protocol; IC50 = 167 µM
SMILES = COC(=O)C=CCCC(NC(=O)c1ccncc1C(=O)O)C(=O)NC(C(=O)N1CC(=O)CC1C(=O)NC(C(=O)NC(C(N)=O)C1CCCCC1)C1CCCCC1)C(C)(C)C (centres unmarked); target = Coagulation factor XIII A chain (Rat, UniProt O08619); assay = transamidation activity, inhibitor; setting = rat enzyme, together with: dansylcadaverine into N,N-dimethylcasein; IC50 = 0.017 ± 0.0006 µM
SMILES = CC(C)[C@H](NC(=O)c1ccc(CNc2nc3c(c(=O)[nH]2)CCC3)cc1)C(=O)NC1COC1; target = MMP9 (Homo sapiens, UniProt P14780); assay = enzyme activity, inhibitor; IC50 = > 5 µM
SMILES = N[C@H](C(=O)N1CCCC1)C1CCN(c2nccc3c(-c4ncc(Cl)cc4Cl)cccc23)CC1; target = PADI4 (Homo sapiens, UniProt Q9UM07); assay = enzyme activity, GDH-coupled; setting = together with: Ca2+ 1.5 mM; IC50 = 0.694 µM
SMILES = Nn1c(-c2ccc(-n3nc(-c4ccccc4O)nc3-c3ccccc3O)cc2)n[nH]c1=S; target = 5-lipoxygenase; IC50 = 0.84 ± 0.05 µM
SMILES = O=C(NCCCCCn1ccc2ccccc21)Oc1ccccc1; target = Faah (Rattus norvegicus, UniProt P97612); test system = rat brain homogenate; setting = 60 min, 37 °C; IC50 = 0.05 µM
SMILES = CN(C)c1ccc(C(=O)NCc2ccc(CNC(=O)CS)cc2)cc1; target = HDAC2 (Homo sapiens, UniProt Q92769); assay = enzyme activity, inhibitor; IC50 = > 30 µM
SMILES = O=C(NC12CC3CC(CC(C3)C1)C2)c1cc2cc(Cl)ccc2[nH]1; target = Cytochrome P450 3A4 (CYP3A4, Homo sapiens, UniProt P08684); assay = enzyme activity, inhibitor; setting = together with: VG substrate; IC50 = 20 µM
SMILES = CNC(=O)C1CCN(c2ccccc2NC(=O)c2ccc(-c3cc(O)ccc3C)c(C)n2)CC1; target = FGR (Homo sapiens, UniProt P09769); assay = target engagement in cells, BRET; IC50 = 0.545 µM
SMILES = CC[C@H](C)[C@H](NC(=O)[C@H](Cc1ccc(O)cc1)NC(=O)[C@H](CCCNC(=N)N)NC(=O)[C@H](CCCNC(=N)N)NC(=O)[C@H](CC(C)C)NC(=O)[C@H](CC(=O)O)NC(=O)[C@H](C)NC(=O)[C@H](C)NC(=O)[C@H](Cc1ccc(O)cc1)NC(=O)[C@H](CCC(=O)O)NC(=O)[C@H](CC(C)C)NC(=O)[C@@H]1CCCN1C(=O)[C@H](C)N)C(=O)N[C@@H](CC(N)=O)C(=O)N[C@@H](CCSC)C(=O)N[C@@H](CC(C)C)C(=O)N[C@H](C(=O)N[C@@H](CCCNC(=N)N)C(=O)N1CCC[C@H]1C(=O)N[C@@H](CCCNC(=N)N)C(=O)N[C@@H](Cc1ccc(O)cc1)C(N)=O)[C@@H](C)O; target = NPY5R (Homo sapiens, UniProt Q15761); assay = radioligand binding; test system = BHK membranes, transfected; IC50 = > 5 µM

Repeated from above:
SMILES = CC(C)[C@H](NC(=O)c1ccc(CNc2nc3c(c(=O)[nH]2)CCC3)cc1)C(=O)NC1COC1; target = MMP9 (Homo sapiens, UniProt P14780); assay = enzyme activity, inhibitor; IC50 = > 5 µM
SMILES = CC(C)C[C@H](NC(=O)[C@H](CCCNC(=N)N)NC(=O)[C@@H](N)CS)C(=O)N[C@@H](CC(N)=O)C(=O)O; target = PPO3 (Agaricus bisporus, UniProt C7FF04); assay = enzyme activity, inhibitor; IC50 = 234 µM
SMILES = CNC(=O)C1CCN(c2ccccc2NC(=O)c2ccc(-c3cc(O)ccc3C)c(C)n2)CC1; target = FGR (Homo sapiens, UniProt P09769); assay = target engagement in cells, BRET; IC50 = 0.545 µM
SMILES = CC[C@H](C)[C@@H]1NC(=O)[C@H](Cc2ccccc2)NC(=O)[C@H](CC(N)=O)NC(=O)[C@@H](NC(=O)[C@@H](NC(=O)[C@H](CO)NC(=O)[C@@H](N)Cc2ccc(O)cc2)[C@@H](C)O)CSC(=O)[C@H](CCSC)NC1=O; target = agrC (Staphylococcus aureus, UniProt O07911); IC50 = 0.0724 µM
SMILES = CCCNC(=O)[C@H](CC(C)C)NC(=O)[C@H](Cc1c[nH]cn1)NC(=O)CNC(=O)[C@@H](NC(=O)[C@H](C)NC(=O)[C@H](Cc1c[nH]c2ccccc12)NC(=O)[C@H](CCC(N)=O)NC(=O)[C@@H](Cc1ccccc1)NC(=O)CCCCCNC(=O)CN1CCN(CC(=O)O)CCN(CC(=O)O)CCN(CC(=O)O)CC1)C(C)C; target = GRPR (Homo sapiens, UniProt P30550); assay = binding; IC50 = 0.00136 ± 9e-05 µM
